Measurements pooled from the literature.
Each line is one published result; not all experiments were run side by side. ± marks the error that the study gave.
inhA: Enoyl-[acyl-carrier-protein] reductase [NADH] (inhA, Mycobacterium tuberculosis, UniProt P9WGR1)
Sequence of UniProt P9WGR1 (whole entry, looked up): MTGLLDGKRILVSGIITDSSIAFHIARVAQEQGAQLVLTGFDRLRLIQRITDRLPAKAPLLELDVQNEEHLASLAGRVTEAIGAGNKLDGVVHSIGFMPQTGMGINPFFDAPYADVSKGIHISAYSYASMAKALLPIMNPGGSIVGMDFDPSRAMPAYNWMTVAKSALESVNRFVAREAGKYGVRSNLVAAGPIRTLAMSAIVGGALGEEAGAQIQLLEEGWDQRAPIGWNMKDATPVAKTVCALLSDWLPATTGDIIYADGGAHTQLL
Cacna1b: Voltage-dependent N-type calcium channel subunit alpha-1B (Cacna1b, Rattus norvegicus, UniProt Q02294)
Sequence of UniProt Q02294 (whole entry, looked up): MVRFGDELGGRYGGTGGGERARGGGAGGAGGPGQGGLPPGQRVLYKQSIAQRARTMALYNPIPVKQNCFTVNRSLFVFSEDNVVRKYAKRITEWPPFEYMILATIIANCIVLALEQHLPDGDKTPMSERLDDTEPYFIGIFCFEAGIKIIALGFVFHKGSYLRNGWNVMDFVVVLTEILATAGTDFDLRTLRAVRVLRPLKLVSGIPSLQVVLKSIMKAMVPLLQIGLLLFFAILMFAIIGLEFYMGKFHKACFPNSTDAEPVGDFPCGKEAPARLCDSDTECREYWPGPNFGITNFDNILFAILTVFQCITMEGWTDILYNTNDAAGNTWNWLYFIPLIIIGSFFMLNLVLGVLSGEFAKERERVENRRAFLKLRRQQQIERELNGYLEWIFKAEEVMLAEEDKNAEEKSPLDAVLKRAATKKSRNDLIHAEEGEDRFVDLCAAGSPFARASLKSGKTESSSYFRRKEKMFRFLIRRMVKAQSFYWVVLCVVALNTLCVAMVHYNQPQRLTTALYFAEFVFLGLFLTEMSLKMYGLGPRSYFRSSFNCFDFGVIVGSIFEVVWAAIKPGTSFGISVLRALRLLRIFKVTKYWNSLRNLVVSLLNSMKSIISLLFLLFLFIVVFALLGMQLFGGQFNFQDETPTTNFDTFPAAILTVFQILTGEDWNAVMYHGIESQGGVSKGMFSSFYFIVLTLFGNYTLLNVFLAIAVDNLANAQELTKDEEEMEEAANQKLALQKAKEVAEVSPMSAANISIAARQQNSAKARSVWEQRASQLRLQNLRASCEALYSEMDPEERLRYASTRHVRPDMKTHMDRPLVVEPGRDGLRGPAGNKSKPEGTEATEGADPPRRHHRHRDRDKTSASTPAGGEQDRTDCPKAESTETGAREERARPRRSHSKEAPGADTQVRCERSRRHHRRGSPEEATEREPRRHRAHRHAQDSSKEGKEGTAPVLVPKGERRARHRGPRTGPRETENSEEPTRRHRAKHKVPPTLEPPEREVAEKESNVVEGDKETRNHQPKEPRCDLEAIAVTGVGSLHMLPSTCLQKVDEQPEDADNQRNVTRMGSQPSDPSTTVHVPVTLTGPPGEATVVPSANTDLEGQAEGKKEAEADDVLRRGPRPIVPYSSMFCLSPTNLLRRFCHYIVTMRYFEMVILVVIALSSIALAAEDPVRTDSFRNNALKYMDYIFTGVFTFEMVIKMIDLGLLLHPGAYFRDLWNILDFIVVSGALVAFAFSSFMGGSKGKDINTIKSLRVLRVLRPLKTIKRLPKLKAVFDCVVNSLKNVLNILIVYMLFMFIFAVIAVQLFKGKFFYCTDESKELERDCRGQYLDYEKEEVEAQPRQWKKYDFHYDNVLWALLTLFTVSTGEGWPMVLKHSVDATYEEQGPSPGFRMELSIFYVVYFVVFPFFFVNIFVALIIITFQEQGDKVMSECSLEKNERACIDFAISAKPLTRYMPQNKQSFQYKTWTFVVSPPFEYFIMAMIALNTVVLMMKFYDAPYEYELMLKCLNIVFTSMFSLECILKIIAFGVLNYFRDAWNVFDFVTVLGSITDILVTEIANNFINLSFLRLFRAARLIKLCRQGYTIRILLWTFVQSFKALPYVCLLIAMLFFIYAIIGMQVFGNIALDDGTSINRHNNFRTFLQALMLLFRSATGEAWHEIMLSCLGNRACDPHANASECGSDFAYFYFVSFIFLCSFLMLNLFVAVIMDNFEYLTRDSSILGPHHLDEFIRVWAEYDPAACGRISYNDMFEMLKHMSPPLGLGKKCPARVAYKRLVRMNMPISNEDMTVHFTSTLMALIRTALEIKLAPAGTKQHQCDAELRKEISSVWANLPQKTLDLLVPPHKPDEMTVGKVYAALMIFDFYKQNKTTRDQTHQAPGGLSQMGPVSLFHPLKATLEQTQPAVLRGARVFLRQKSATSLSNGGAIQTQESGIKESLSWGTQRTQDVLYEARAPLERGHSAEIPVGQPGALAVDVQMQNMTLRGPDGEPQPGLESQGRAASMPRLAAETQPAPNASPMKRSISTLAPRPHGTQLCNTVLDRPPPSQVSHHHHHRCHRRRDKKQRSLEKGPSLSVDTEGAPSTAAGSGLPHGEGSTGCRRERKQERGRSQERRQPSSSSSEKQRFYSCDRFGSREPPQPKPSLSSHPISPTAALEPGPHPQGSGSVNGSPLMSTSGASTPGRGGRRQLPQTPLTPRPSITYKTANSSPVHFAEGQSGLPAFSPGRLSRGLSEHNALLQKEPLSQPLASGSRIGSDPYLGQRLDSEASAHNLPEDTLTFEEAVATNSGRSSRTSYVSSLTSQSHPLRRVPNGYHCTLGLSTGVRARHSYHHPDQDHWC
Sequence of UniProt Q8NER1 (whole entry, unmodified, looked up): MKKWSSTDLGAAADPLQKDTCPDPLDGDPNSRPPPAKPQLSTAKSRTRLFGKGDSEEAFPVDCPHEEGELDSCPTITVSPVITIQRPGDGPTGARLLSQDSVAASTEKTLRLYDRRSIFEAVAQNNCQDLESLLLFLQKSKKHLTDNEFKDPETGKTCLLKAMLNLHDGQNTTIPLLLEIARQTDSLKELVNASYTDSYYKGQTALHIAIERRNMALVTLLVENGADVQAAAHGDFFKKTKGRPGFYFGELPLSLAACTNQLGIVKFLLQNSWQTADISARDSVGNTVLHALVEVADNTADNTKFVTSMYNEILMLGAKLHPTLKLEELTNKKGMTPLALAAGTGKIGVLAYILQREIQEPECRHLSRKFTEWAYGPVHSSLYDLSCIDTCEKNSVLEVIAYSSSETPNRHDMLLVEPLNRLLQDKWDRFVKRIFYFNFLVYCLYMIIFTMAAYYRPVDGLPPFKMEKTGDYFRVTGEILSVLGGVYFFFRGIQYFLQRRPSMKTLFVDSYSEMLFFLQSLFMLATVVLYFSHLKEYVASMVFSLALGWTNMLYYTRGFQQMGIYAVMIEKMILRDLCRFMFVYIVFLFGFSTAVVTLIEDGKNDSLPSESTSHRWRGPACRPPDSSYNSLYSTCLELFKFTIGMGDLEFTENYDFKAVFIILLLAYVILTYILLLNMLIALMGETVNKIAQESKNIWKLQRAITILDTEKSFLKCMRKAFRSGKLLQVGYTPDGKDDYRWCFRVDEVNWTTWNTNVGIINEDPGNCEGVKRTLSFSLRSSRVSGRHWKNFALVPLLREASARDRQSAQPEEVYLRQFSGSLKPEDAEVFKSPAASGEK
Sequence of UniProt P25100 (whole entry, looked up): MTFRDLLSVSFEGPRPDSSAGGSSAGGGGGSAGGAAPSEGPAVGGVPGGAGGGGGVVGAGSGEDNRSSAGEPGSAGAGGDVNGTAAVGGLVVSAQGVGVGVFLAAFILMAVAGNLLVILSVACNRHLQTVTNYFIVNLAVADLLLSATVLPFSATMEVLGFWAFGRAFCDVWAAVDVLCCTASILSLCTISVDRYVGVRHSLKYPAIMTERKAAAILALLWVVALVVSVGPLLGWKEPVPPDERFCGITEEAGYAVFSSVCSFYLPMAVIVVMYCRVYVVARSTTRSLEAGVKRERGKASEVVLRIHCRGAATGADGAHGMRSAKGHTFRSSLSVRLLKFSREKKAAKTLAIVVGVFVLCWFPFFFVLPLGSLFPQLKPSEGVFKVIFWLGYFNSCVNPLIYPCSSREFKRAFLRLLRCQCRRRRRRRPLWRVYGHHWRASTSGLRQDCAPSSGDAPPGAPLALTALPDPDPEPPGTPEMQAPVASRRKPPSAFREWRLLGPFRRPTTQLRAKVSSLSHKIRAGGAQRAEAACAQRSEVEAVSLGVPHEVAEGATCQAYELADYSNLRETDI
Sequence of UniProt P32241 (whole entry, looked up): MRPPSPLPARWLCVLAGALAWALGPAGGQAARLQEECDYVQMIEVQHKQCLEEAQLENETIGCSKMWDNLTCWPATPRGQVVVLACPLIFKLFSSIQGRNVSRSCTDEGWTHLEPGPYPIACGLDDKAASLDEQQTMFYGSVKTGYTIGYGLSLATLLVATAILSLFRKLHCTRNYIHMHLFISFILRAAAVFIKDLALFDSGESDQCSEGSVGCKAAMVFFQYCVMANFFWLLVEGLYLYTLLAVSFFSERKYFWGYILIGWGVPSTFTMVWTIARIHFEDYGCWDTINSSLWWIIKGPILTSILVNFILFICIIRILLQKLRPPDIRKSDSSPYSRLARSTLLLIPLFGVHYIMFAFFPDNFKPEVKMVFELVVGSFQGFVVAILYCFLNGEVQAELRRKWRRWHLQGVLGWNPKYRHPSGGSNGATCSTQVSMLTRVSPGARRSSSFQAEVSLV

Oc1cc(Cn2ccnn2)ccc1Oc1ccc(Cl)cc1Cl  inhibition (inhA; enzyme activity, inhibitor; concentration not given): 97 ± 0.14%
CCN(CC)C(=O)[C@@H]1C=C2c3cccc4c3c(cn4C(=O)c3ccco3)C[C@H]2N(C)C1  inhibition (Alpha-1D adrenergic receptor (ADRA1D, Homo sapiens, UniProt P25100); radioligand binding; 10 µM): < 50%
Oc1cc(CNc2ccccc2)ccc1Oc1ccc(Cl)cc1Cl  inhibition (inhA; enzyme activity, inhibitor; concentration not given): 99 ± 0.28%
CC(C)c1nc2cc(O)ccc2c(=O)n1-c1ccc(C#N)cc1  inhibition (Transient receptor potential cation channel subfamily V member 1 (TRPV1, Homo sapiens, UniProt Q8NER1, I573A); ion current, inhibitor, whole-cell patch clamp; concentration not given, pH 5, mutant I573A): decreased
CN[C@@H]1[C@H](O)[C@H](NC)[C@H]2O[C@]3(O)[C@H](O[C@@H]2[C@H]1O)O[C@H](C)C[C@H]3NC(=O)Cc1cc(Cl)ccn1  inhibition (ATP-binding cassette sub-family C member 8 (ABCC8, Cricetus cricetus, UniProt Q09427); 10 µM): 12%
C[Si](C)(C)C[C@@H](CN)CC(=O)O  inhibition (Cacna1b; cell-free assay, inhibitor; 75 µM): -19%
CN[C@@H]1[C@H](O)[C@H](NC)[C@H]2O[C@]3(O)[C@H](O[C@@H]2[C@H]1O)O[C@H](C)C[C@H]3NC(=O)Cc1ccc(Cl)cn1  inhibition (Cacna1b; cell-free assay; 10 µM): 27%
Cc1sc2c(c1C)C(c1ccc(Cl)cc1)=NC(CC(=O)OC(C)(C)C)c1nnc(C)n1-2 (centres unmarked)  inhibition (Vasoactive intestinal polypeptide receptor 1 (VIPR1, Homo sapiens, UniProt P32241); ligand displacement, radioligand; 1 µM): -9%

Some of these lines once more:
C[Si](C)(C)C[C@@H](CN)CC(=O)O  inhibition (Cacna1b; cell-free assay, inhibitor; 75 µM): -19%
